Measured values of several laboratories.
Numbered parts are unrelated; each lists some results of a single study.

Series 1 — technique: protein-binding microarray; form: double-stranded DNA, one strand shown; sample: in vitro; concentration: 940 nM top; setting: 60-bp whole probe; with: salmon DNA 0.4 mg/ml; baseline: random background probes; direction: higher = stronger binding; shared flanks, not repeated: GCCTAGCACTT … GTCTTGATTCGCTTGACGCTGCTG
Target: Interferon regulatory factor 5, full length, phosphomimetic (IRF5, Homo sapiens, UniProt Q13568-2, residues 1-514, S451D/S453D/S456D/S462D)
`CGGACTGGGTATCGGTTAGTGCTAG`: “fitted relative affinity” 3.93 z-score.
For `AGGACTGGGACTGGGATAGTGCTAG`, “fitted relative affinity” read -0.279 z-score.
`AGGTATCCCTCTCCTTTAGTGCTAG`: “fitted relative affinity” 0.79 z-score.
`CGATTTCGGGTATCGATTAGTGCTA`: “fitted relative affinity” 3.96 z-score.
Under “fitted relative affinity”, `AGGACTGCTGCTGCTTTAGTGCTAG` is recorded as -0.546 z-score.

Series 2 — technique: universal PBM; form: double-stranded DNA, one strand shown; sample: in vitro; concentration: 600 nM; direction: higher = stronger binding
Target: Sal-like protein 4, full length isoform A (SALL4, Homo sapiens, UniProt Q9UJQ4, residues 1-1053)
Chain of UniProt Q9UJQ4 (whole entry, looked up): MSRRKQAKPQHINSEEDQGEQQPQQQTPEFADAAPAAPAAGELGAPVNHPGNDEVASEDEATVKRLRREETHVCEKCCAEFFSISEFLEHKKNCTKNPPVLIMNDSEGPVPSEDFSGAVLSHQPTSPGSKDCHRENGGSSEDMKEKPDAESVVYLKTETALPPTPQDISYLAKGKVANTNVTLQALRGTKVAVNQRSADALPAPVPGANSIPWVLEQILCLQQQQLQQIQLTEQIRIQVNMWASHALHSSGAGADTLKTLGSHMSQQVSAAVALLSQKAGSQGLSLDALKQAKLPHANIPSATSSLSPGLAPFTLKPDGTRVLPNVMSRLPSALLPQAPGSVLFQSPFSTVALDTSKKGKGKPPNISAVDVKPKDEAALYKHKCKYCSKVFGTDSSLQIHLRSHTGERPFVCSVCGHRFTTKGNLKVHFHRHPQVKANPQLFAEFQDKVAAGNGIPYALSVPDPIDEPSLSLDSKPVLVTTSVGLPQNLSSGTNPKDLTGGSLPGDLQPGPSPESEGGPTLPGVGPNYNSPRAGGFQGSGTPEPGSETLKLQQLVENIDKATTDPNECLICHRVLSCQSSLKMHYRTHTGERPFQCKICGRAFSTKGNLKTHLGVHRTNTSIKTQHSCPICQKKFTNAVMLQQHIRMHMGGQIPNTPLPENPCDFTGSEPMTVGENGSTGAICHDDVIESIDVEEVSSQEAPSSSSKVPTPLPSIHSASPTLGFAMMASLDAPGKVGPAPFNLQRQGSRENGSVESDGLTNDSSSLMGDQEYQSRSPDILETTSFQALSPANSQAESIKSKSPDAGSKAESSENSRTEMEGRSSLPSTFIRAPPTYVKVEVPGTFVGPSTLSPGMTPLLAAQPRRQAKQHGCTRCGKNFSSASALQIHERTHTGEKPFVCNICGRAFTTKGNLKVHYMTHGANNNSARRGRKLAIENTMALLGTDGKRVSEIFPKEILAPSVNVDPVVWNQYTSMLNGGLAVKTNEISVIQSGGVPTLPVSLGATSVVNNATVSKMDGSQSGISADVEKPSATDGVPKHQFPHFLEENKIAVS
Setting: 8-mer, flanks averaged, mean of replicates
`GAGCCCTA` has an E-score of -0.104.
`ACCTCAAA` gave an E-score of 0.127.
`AGAAGGTA` gave an E-score of 0.17.

Series 3 — technique: protein-binding microarray; form: double-stranded DNA, one strand shown; sample: in vitro; concentration: 0.8 µM; setting: whole 60-bp probe, no competitor; direction: higher = stronger binding; shared flanks, not repeated: … GTCTTGATTCGCTTGACGCTGCTG
Target: Centromere-binding protein 1, full length, N-terminal tag (CBF1, Saccharomyces cerevisiae, UniProt P17106, residues 1-351)
Chain of UniProt P17106 (whole entry, looked up): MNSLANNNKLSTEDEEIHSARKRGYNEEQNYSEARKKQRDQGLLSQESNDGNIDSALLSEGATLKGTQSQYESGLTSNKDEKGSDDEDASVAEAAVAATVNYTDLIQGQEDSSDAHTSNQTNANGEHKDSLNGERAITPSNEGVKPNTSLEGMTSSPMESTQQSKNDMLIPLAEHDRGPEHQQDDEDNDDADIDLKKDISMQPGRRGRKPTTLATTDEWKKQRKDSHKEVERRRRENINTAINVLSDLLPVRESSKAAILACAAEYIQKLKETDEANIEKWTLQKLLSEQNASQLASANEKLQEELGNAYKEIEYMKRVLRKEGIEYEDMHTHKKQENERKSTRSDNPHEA
With `CTAAGATTCTTGAGCCACCAGACGCTAAATAATTTC` the fluorescence intensity was 533 a.u.
`GAACATCTATTAAATCTGATGACTGTTTTCTCATAG` has a fluorescence intensity of 554 a.u.
The fluorescence intensity of `CTACCTTTCGACAGTCATCAGATAATTTTATCCTTC` is reported as 553 a.u.
With `GAAGGAAGAGTACAACACGCCATACAATGATCATAG` the fluorescence intensity was 539 a.u.
The fluorescence intensity of `CTACTGGTTACCCTGCATGTGATATGTGATTACTTC` is reported as 2210 a.u.

Mixed results
For `PhoQ, residues 284 288 289 292 302 303 GTAMQF`, the fold induction was 1.22 (PhoP, residues 12 14 15 18 19 DLLYY (Escherichia coli, UniProt P23836); Sort-seq, item: YFP reporter; E. coli; PhoQ-PhoP variant library, with: 10 µM Mg2+; baseline: high Mg2+ state, higher = stronger signaling).

For quick reference, copied from above (series 2):
`ACCTCAAA` gave an E-score of 0.127.
`GAGCCCTA` has an E-score of -0.104.
